Measured values collected from several papers.
Parts stem from different laboratories: compare values within a part only. Substitutions count along the parent as printed.

Block 1 — target: CREB3L2, bZIP domain (human); method: DHFR protein complementation; sample: yeast; relative to: wild-type JUN-FOS pair; direction: higher = stronger binding
Setting: single substitutions, most at no-binding floor
Starting sequence: JUN, bZIP domain (human); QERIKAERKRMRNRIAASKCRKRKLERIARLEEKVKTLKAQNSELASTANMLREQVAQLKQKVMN; partner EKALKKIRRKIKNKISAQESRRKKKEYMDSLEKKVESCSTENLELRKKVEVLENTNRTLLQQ
With `V35E` the binding fitness was -1.53 natural log.
`A29S` gave a binding fitness of -1.3 natural log.
`K36E` gave a binding fitness of -1.56 natural log.
With `K36T` the binding fitness was -1.5 natural log.
`L38Q` gave a binding fitness of -1.49 natural log.
With `T48C` the binding fitness was -1.55 natural log.
`S47L` gave a binding fitness of -1.47 natural log.
For `A57N`, the binding fitness was -1.35 natural log.
With `A46K` the binding fitness was -1.52 natural log.
`L38F` gave a binding fitness of -1.55 natural log.
The binding fitness of `L59W` is reported as -1.54 natural log.
`K39S` gave a binding fitness of -1.51 natural log.
`I28E` has a binding fitness of -1.58 natural log.
The binding fitness of `Q58P` is reported as -1.52 natural log.
The binding fitness of `S43Q` is reported as -1.26 natural log.
`L52G` has a binding fitness of -1.52 natural log.
With `A57H` the binding fitness was -1.45 natural log.
The binding fitness of `A29K` is reported as -1.11 natural log.
With `A49W` the binding fitness was -1.49 natural log.
The binding fitness of `V56W` is reported as -1.58 natural log.
`L59H` has a binding fitness of -1.36 natural log.
With `S47P` the binding fitness was -1.49 natural log.
For `T37V`, the binding fitness was -1.41 natural log.
The binding fitness of `N42V` is reported as -1.45 natural log.
`M51S` has a binding fitness of -1.4 natural log.

Block 2 — method: RNA Bind-n-Seq; molecule type: RNA; sample: in vitro; tested at: not given; relative to: input RNA pool; direction: higher = stronger binding
Target: RING finger protein unkempt homolog, zinc fingers 1-6, GST-SBP tag (UNK, Homo sapiens, UniProt Q9C0B0, residues 30-357)
Setting: RNA with constant flanks, human-mouse chimeric sites, ends assumed
Target sequence (chain): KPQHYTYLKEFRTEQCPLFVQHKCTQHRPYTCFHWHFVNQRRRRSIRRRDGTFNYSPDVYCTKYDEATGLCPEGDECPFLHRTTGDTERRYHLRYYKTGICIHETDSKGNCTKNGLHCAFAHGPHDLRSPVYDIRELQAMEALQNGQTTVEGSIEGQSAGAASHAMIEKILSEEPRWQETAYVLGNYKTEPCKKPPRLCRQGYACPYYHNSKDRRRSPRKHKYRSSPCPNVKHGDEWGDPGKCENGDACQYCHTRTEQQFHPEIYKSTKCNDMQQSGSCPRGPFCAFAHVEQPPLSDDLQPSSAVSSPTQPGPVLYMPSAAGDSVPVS
With `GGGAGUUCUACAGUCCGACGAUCAACUUCGUACAUAGAUUUCCCUUUGUAGCUGUUUCAAUUGGCUUCCUUGUGAAUAAAGAGAUGGAGUUUGGAAUUGUGUACAGUUGUGUGGAAGAUAAGAUGUACACCGGCAGGAAAGGGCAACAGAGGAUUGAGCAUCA` the bound/input enrichment was 1.18 ratio.
`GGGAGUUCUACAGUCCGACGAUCUUGCUACUGACUCCCUGGGUUAAAUUCCUGUGGGAAUCAUACAGGCAGUGUUUGGACCUUCUUAGAAACAAUUCUAGAGUAGAGCGCCUUUACCAUGAUAUCGCCCAACAAGCUUUCAAACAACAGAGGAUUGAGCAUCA` has a bound/input enrichment of 0.237 ratio.
`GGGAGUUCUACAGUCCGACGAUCAAUGUUCUUAAUAUUUUUGAAUAAAUGAAGCUAAAAUGUCUGCUUUUGGUACAACACGCAUUAAUAAAAGGUUAAGUUUUGUUUUCCACUGAAGUACUAUUUAACAUCUCAGAAAAAAACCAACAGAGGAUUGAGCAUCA` gave a bound/input enrichment of 0.319 ratio.
The bound/input enrichment of `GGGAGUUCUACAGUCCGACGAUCGUAUACGGUUAUCGAGGAAAGGACUGUAGAGCGAAUGUUUACCUUCUUCCCACAGGGGAGAUAGUUUAUUUUAUCGCCUCAGUGGUAGUCCUGUUUAAUUAUGAGGAGAGAACUCAGCGACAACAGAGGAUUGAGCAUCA` is reported as 0.252 ratio.
The bound/input enrichment of `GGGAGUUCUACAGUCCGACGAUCUUGGAAGGACCAGAGCCCAGUCAGCUCAAACCAUUAGUUAUACAGGCUAUGCCCACCCUAAUAGAACUAAUGAAAGACCCCAGUGUAGUUGUUCGAGACACAACAGCGUGGACUGUGGGCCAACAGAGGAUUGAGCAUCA` is reported as 0.443 ratio.
The bound/input enrichment of `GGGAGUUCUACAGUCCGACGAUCCUGGCACUCUAUCAGAUAGAUUACUUUUUUAAUGUAGAUGUAAUUUUAAAAAUGAAUGGCUACUUUACACGUUUAACUAGGGUUUUACUAUAUAUGUGUACAUAUGUAUAUGUAUUUAUACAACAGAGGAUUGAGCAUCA` is reported as 22.1 ratio.
The bound/input enrichment of `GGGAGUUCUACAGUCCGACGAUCUGACAAGCACGAGCAUCAGCCAUGCCUUUCCUUGACAUACAGAAAAAGCUGGGCAUCAGCCUGGACCGGCACUUUAUGUUCCUAAGCGGUGAACAGCCCUAUAAGAACGCCGCUCGGUGCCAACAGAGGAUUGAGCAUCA` is reported as 0.125 ratio.
`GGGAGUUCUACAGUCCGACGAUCCACACCCUCUUCUGCGGGACCCUCAUCUUGCAGGCCCGAGCCUACGUGGGACCGCACGUCCUGGCAGUGGUGACCCGCACAGGGUUCUGCACGGCAAAAGGGGGCCUGGUGAGCUCCAUCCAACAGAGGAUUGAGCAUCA` gave a bound/input enrichment of 0.0794 ratio.
`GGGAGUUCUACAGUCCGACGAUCCGCUGGCCCAAGCUGAUGGACUCUGAUGGCCUCCAUCAAGGUAUUAUGUGUGCCUUCUCUUAGUCCCUGUUUUCGGGAUGUUAUGAAUCUCAGUACUGUGGUUUGAAAGCACCAGCUUUGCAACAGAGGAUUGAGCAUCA` gave a bound/input enrichment of 0.0923 ratio.
The bound/input enrichment of `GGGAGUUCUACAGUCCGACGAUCGGGACUGAUUCAUCCCAAGGACAGGCCGCCCAGUCUGAUGCCUGGACUGACGACAGUAUGGAAGGGCCUAGUCAAAAUGUUGAAGCUGAGUCAAUUCAGGAUGCCAUGAGUAUGGAAGAGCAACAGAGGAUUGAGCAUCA` is reported as 0.25 ratio.
For `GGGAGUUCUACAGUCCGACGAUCAGUACUGACUCAGGCGGAUUUUGCAACACCAAGCUCACAGCAGCAGCAUCUUAGUCACAGUAGGGUAGUUUUGGGGCAAUAUUGCCAGGGUUUUAUUCACAUGCAGGUUUGGAAAAUGUACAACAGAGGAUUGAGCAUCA`, the bound/input enrichment was 8.3 ratio.

Block 3 — target: CCND3, cyclin fold, Cln2 fusion (human); method: yeast growth competition, sequencing; sample: yeast; setting: weak parent motif; relative to: not given; direction: higher = stronger binding
Starting sequence: MICAL3 docking peptide (human); LQLRRQLSFSEDS
`R5G` — result for “normalised enrichment score”: 0.019.
`Q2M` — result for “normalised enrichment score”: 0.041.
`Q2V`: “normalised enrichment score” 0.129.
`L3N` — result for “normalised enrichment score”: 0.157.
For `Q2R`, “normalised enrichment score” read -0.254.
For `S8D`, “normalised enrichment score” read 0.0157.
`R5L`: “normalised enrichment score” 0.144.
For `Q2D`, “normalised enrichment score” read -0.101.
`R5Q` — result for “normalised enrichment score”: 0.1.
`E11G`: “normalised enrichment score” 0.0115.
For `R5E`, “normalised enrichment score” read 0.325.
Under “normalised enrichment score”, `L3S` is recorded as 0.387.
`R4V`: “normalised enrichment score” -0.209.
Under “normalised enrichment score”, `Q2K` is recorded as 0.188.
Under “normalised enrichment score”, `S8V` is recorded as -0.254.
Under “normalised enrichment score”, `L7K` is recorded as 0.142.
Under “normalised enrichment score”, `L3Q` is recorded as -0.0511.
`E11L`: “normalised enrichment score” 0.122.
`R4T` — result for “normalised enrichment score”: -0.528.
`D12Q`: “normalised enrichment score” 0.311.
`L7N`: “normalised enrichment score” -0.182.
`F9P`: “normalised enrichment score” -0.122.
`R5V`: “normalised enrichment score” -0.0283.
`Q6S` — result for “normalised enrichment score”: -0.0775.
`R5F`: “normalised enrichment score” -0.134.

Block 4 — target: UBE2L3 UBC core domain (UniProt P68036); method: yeast two-hybrid; sample: yeast; setting: mostly zero background; relative to: not given; direction: higher = stronger interaction
Sequence of UniProt P68036 (whole entry, looked up): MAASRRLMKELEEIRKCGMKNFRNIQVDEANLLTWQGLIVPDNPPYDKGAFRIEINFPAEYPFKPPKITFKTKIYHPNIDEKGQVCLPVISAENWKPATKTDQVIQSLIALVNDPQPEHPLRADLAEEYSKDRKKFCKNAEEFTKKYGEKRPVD
B1: RNF32 RING domain (UniProt Q9H0A6); chain VQALRRETHECSICLAPLSAAGGQRVGAGRRSREMALLSCSHVFHHACLLALEEFSVGDRPPFHACPLCRSCYQKKILEC
B2: TRIM34 RING domain (UniProt Q9BYJ4); chain ILLNVQEEVTCPICLELLTEPLSLDCGHSLCRACITVSNKEAVTSMGGKSSCPVCGISYSFEHLQA
B3: NHLRC1 RING domain (UniProt Q6VVB1); chain MREAEISLLECKVCFEKFGHRQQRRPRNLSCGHVVCLACVAALAHPRTLALECPFCRRACRGCDTSD
B4: PJA2 RING domain (UniProt O43164); chain DHTAIGQEQCCPICCSEYIKDDIATELPCHHFFHKPCVSIWLQKSGTCPVCRRHFPPAVIEA
B5: MARCHF2 RING domain (UniProt Q9P0N8); chain RLLSTVIRALDTPSDGPFCRICHEGANGECLLSPCGCTGTLGAVHKSCLEKWLSSSNTSYCELCHTEFAVEKRPRPLTEWL
B6: ARIH1 RING domain (UniProt Q9Y4X5); chain NTRSSAQDMPCQICYLNYPNSYFTGLECGHKFCMQCWSEYLTTKIMEEGMGQTISCPAHGCDILVDDNTVM
B7: CBLL1 RING domain (UniProt Q75N03); chain GEKDDTPVHFCDKCGLPIKIYGRMIPCKHVFCYDCAILHEKKGDKMCPGCSDPVQRIEQCT
B8: RNF115 RING domain (UniProt Q9Y4L5); chain TQEQVDMGLECPVCKEDYTVEEEVRQLPCNHFFHSSCIVPWLELHDTCPVCRKSLNGEDSTR
B9: SHPRH RING domain (UniProt Q149N8); chain KTSGGVNPEPCPICARQLGKQWAVLTCGHCFCNECISIIIEQYSVGSHRSSIKCAICRQTTSHKEISY
B10: TRIM32 RING domain (UniProt Q13049); chain NLDALREVLECPICMESFTEEQLRPKLLHCGHTICRQCLEKLLASSINGVRCPFCSKITRITSLTQ
B11: RNF130 RING domain (UniProt Q86XS8); chain DKETDPDFDHCAVCIESYKQNDVVRILPCKHVFHKSCVDPWLSEHCTCPMCKLNILKALGIV
B12: RFPL3 RING domain (UniProt O75679); chain MAALFQEASSCPVCSDYLEKPMSLECGCTVCLKCINSLQKEPHGEDLLCCCCSMVSQRNKIRP
B13: TRIM68 RING domain (UniProt Q6AZZ1); chain LVEAIVEEVACPICMTFLREPMSIDCGHSFCHSCLSGLWEIPGESQNWGYTCPLCRAPVQPRNLRP
B14: RNF10 RING domain (UniProt Q8N5U6); chain VRICSHEVPSCPICLYPPTAAKITRCGHIFCWACILHYLSLSEKTWSKCPICYSSVHKKDLKS
Under “lacZ reporter activity”, `B1 (RNF32 RING domain)` is recorded as 0.
For `VPADASPDSKCPICLDRFDNVSYLDRCLHKFCFRCVQEWSKNKAECPLCKQPFDSIFHSV (TOPORS RING domain (UniProt Q9NS56))`, “lacZ reporter activity” read 0.
`B2 (TRIM34 RING domain)`: “lacZ reporter activity” 0.
`B3 (NHLRC1 RING domain)`: “lacZ reporter activity” 0.
`B4 (PJA2 RING domain)`: “lacZ reporter activity” 0.
`EIKDYKARLTCPCCNMRKKDAVLTKCFHVFCFECVKTRYDTRQRKCPKCNAAFGANDFHR (RNF20 RING domain (UniProt Q5VTR2))` — result for “lacZ reporter activity”: 0.
`B5 (MARCHF2 RING domain)` — result for “lacZ reporter activity”: 0.
`B6 (ARIH1 RING domain)` — result for “lacZ reporter activity”: 0.
For `B7 (CBLL1 RING domain)`, “lacZ reporter activity” read 0.
For `B8 (RNF115 RING domain)`, “lacZ reporter activity” read 0.
Under “lacZ reporter activity”, `PLRRLQEEKLCKICMDRHIAVVFIPCGHLVTCKQCAEAVDRCPMCSAVIDFKQRVF (BIRC8 RING domain (UniProt Q96P09))` is recorded as 0.
For `FLSKVEETFQCICCQELVFRPITTVCQHNVCKDCLDRSFRAQVFSCPACRYDLGRSYAMQ (UHRF1 RING domain (UniProt Q96T88))`, “lacZ reporter activity” read 0.
`B9 (SHPRH RING domain)` — result for “lacZ reporter activity”: 0.
`KITELNPHLMCALCGGYFIDATTIVECLHSFCKTCIVRYLETNKYCPMCDVQVHKTRPLL (PCGF2 RING domain (UniProt P35227))` — result for “lacZ reporter activity”: 0.
`B10 (TRIM32 RING domain)`: “lacZ reporter activity” 0.
For `B11 (RNF130 RING domain)`, “lacZ reporter activity” read 0.
`B12 (RFPL3 RING domain)` — result for “lacZ reporter activity”: 0.
For `B13 (TRIM68 RING domain)`, “lacZ reporter activity” read 0.
`B14 (RNF10 RING domain)`: “lacZ reporter activity” 0.

Excerpt of the above (block 4):
`B4 (PJA2 RING domain)`: “lacZ reporter activity” 0.
`EIKDYKARLTCPCCNMRKKDAVLTKCFHVFCFECVKTRYDTRQRKCPKCNAAFGANDFHR (RNF20 RING domain (UniProt Q5VTR2))` — result for “lacZ reporter activity”: 0.
`B5 (MARCHF2 RING domain)` — result for “lacZ reporter activity”: 0.
`B6 (ARIH1 RING domain)` — result for “lacZ reporter activity”: 0.
For `B7 (CBLL1 RING domain)`, “lacZ reporter activity” read 0.
For `B8 (RNF115 RING domain)`, “lacZ reporter activity” read 0.
